Results of several laboratories.
A part holds a random share of what one study measured. Positions count from the first letter of the parent shown.

Series 1 — method: RNA Bind-n-Seq; molecule type: RNA; matrix: in vitro; concentration: 365 nM; relative to: no-protein control; reading: higher = stronger binding
Target: RNA binding protein fox-1 homolog 2, RRM domain, GST-SBP tag (RBFOX2, Homo sapiens, UniProt O43251-10, residues 100-194)
Notes: natural RNA segment, single round, ends assumed
All sequences stand within: GGGAGUUCUACAGUCCGACGAUC … UGGAAUUCUCGGGUGCCAA
Residues (chain): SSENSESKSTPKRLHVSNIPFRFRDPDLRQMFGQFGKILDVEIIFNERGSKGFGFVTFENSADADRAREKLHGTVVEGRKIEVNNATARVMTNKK
| Oligonucleotide | RBNS enrichment (R) |
| --- | --- |
| AUGAUCUUUGUCUUUCCUUUAUCUUGCUUUAUCCUCUUAUCCAAUUCUAGACUCUUAAAUAAUCACUGUAUUUUUCUCAAGUAUUUGUUAUUUUUUAUUAUCCUUUAGAU | 0.938 |
| AUUGUAUAUAUGGCAGGCUUCCCUGGUGCCGAUGUAAAGGGCUACAUUUGGGAACAUUUGACUUCCUUGGGACUCUUAAGUGCAUAAUGAUGGCAUGAAGUAAAAGGGGC | 8.96 |
| UCAAGAAAUACUUUUCCAUGACCCAUGGAAGCUCCUCAUCGCGACUAUAUUUCUCAAUCGGACCUCAGGCAAGAUGGCCAUCCCUGUGCUGUGGGAGUUUCUAGAGAAGU | 0.319 |
| AGCACUUGAGUUGUACAACAGAACACUUGUACAAAAUAGAUUUUAAGGCUAACUUCUUUUCACUGUUGUGACCCUUUGCAAAAUGUAUGUUACAAUAGAUAGUGUCAUGU | 1.71 |
| CACAGACCGAUGCCCUUCUUACCCCAAGUUCCCAUAAACACUUGCAUGCAGAAGCACACAGGACACAGGGACCAUGUGGGAAGCAUGCUCAGCCUAGCAGAGCUGAAAGG | 5.1 |

Series 2 — target: human cyclin B2; read-out: peptide binding; method: yeast competitive growth sequencing; molecule type: peptide; organism: Saccharomyces cerevisiae; strain: cyclin B2-Cln2 fusion; concentration: concentration not given; notes: peptide tiling library; reading: direction not given
| Sequence | binding enrichment score |
| --- | --- |
| SNFFDVIKQLFSDEKN | -0.877 |
| AGSAKRRLFGEDPPKE | 0.832 |
| HRRRLLFACSPPPASQ | -0.487 |
| DWDTVERQEEEAPSWD | 0.405 |

Series 3 — method: DHFR PCA, deep sequencing; matrix: yeast; together with: (+)-ABA 0 µM; relative to: wild-type fitted maximum; reading: higher = stronger binding
Target: ABI1, truncated, D143A, DHFR fusion (Arabidopsis thaliana)
Notes: methotrexate growth selection, single substitutions
Starting sequence: PYL1, truncated, DHFR fusion (Arabidopsis thaliana); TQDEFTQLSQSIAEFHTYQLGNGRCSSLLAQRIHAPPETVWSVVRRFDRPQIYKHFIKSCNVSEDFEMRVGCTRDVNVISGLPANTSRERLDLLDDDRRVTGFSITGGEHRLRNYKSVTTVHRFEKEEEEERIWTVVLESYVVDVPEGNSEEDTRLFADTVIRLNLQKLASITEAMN; partner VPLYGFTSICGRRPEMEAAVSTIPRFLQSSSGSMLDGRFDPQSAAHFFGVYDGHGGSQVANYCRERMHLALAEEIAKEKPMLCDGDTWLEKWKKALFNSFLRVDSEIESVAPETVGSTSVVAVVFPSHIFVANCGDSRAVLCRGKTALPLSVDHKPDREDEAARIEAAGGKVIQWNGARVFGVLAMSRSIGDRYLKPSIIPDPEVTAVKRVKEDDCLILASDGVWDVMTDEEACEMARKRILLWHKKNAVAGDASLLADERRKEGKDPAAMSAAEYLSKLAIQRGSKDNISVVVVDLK
| Change | relative binding score [%] |
| --- | --- |
| E125W | 7.73 |
| S104Q | -3.88 |
| H34D | 31.7 |
| L29H | 30.9 |
| D159L | -9.93 |

Further values, each from its own experiment
| Substance | target | test | test system | setting | how to read | quantity | value |
| --- | --- | --- | --- | --- | --- | --- | --- |
| PhoQ, residues 284 288 289 292 302 303 TSTLRA | PhoP, residues 12 14 15 18 19 NNFVT (Escherichia coli, UniProt P23836) | Sort-seq, measured: YFP reporter | E. coli | PhoQ-PhoP variant library, together with: 10 µM Mg2+ | relative to: high Mg2+ state, higher = stronger signaling | fold induction | 10.1 |

A few entries again (series 2):
| Sequence | binding enrichment score |
| --- | --- |
| HRRRLLFACSPPPASQ | -0.487 |
| DWDTVERQEEEAPSWD | 0.405 |
